Results collected from several papers.
Every numbered part comes from another study and shows a few of its results, in no order.

Sample 1 — technique: protein-binding microarray; form: double-stranded DNA, one strand shown; sample: in vitro; tested at: 2200 nM top; notes: 60-bp whole probe; together with: salmon DNA 0.4 mg/ml; reference: random background probes; reading: higher = stronger binding; measurement: fitted relative affinity; shared flanks, not repeated: GCCTAGCAC … GTCTTGATTCGCTTGACGCTGCTG
Target: Interferon regulatory factor 7, full length, phosphomimetic (IRF7, Homo sapiens, UniProt Q92985, residues 1-503, S471D/S472D/S475D/S476D/S477D/S483D/S484D/S487D)
Residues (chain): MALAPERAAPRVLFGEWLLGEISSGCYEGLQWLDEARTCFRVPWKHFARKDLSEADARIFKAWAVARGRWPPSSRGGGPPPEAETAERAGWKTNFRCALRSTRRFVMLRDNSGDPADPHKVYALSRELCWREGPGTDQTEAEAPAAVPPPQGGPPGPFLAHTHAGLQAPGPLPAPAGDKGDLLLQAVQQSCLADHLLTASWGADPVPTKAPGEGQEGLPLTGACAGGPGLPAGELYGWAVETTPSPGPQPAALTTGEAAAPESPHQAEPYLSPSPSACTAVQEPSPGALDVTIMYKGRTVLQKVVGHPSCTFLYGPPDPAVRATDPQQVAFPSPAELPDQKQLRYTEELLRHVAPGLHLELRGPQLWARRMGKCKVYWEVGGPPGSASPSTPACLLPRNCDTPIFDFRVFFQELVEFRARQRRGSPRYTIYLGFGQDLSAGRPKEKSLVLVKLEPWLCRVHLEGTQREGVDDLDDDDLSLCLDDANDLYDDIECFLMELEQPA
TTAGGTTTCCCACTGCTTTAGTGCTAG: 1.54 z-score
GACGAACTGATTTTCGAGACGTGCTAG: 2.56 z-score
TCATTTCTCAGTTTATTACTGTGCTAG: 2.42 z-score
ATAGATCTCAGTATCGATTAGTGCTAG: 0.399 z-score
GTCGATATCAGTTTCGAGACGTGCTAG: 3.88 z-score
GACTATTTCAGACTGGAGACGTGCTAG: 0.498 z-score
GACGAACTGGGGTATCTAGACGTGCTA: 0.0158 z-score
TGGGTAATGCTTCTGTATTCGTGCTAG: 0.613 z-score
TTAGATTTCGGGTATTGATTAGTGCTA: 2.39 z-score
TTAGATCTCAGACTGGATGAGTGCTAG: 0.0591 z-score
CTAGATTTCAGTATCGATTAGTGCTAG: 1.09 z-score
GACGATTTCGGGTTTCGCGACGTGCTA: 4.72 z-score
GACGGTCTCGGTTTGGGGACGTGCTAG: 1.9 z-score
TCATTTTCATTGTTTTTCACTGTGCTA: 3.17 z-score
GACTATATCAGTATCGAGACGTGCTAG: 0.249 z-score
GACGGTATCGAACTGGGGACGTGCTAG: 0.00925 z-score
TTAGGACTGGACTTTCAGTTAGTGCTA: 0.34 z-score
GACGGTATTGGACTGGGGACGTGCTAG: -0.381 z-score
ACAAGTTTCTCCTTTCCAAAGTGCTAG: 3.58 z-score

Sample 2 — technique: protein binding microarray; form: double-stranded DNA, one strand shown; sample: in vitro; tested at: not given; reference: not given; reading: higher = stronger binding; measurement: E-score
Target: Histone acetyltransferase KAT6A, both winged helices, GST fusion (KAT6A, Homo sapiens, UniProt Q92794, residues 1-181)
Notes: 8-mer, flanks averaged, mean of 2 arrays, mostly near background
Target sequence (chain): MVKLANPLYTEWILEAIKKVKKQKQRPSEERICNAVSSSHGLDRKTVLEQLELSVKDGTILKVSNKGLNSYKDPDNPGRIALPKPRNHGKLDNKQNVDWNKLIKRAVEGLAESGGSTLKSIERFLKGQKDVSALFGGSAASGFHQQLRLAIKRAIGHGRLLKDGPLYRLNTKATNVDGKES
CAGCTGTA: -0.0303
ATAATCAA: 0.0581
CCAAGCGG: 0.158
ACCTATAT: 0.0164
ACGCACCC: 0.153
ATGAAGCG: 0.11
AGCCAACT: -0.164
ATATTATG: 0.00145
AAAGTGTG: -0.128
GGCTCAAC: -0.0323
ATTGGACG: 0.0461
CATGACCC: 0.00208
AAGGACTA: -0.235
AGTTGCAT: -0.132
AGTTTGTG: -0.0484
AAACGTGA: -0.0369

Sample 3 — technique: universal PBM; form: double-stranded DNA, one strand shown; sample: in vitro; tested at: not given; reading: higher = stronger binding; measurement: E-score
Target: Sal-like protein 4, full length isoform B (SALL4, Homo sapiens, UniProt Q9UJQ4-2, residues 1-616)
Notes: 8-mer, flanks averaged, mean of replicates
ACAGTATG: 0.135
CCCTAGCG: -0.254
ACGGAGCC: -0.275
AGGCGTGA: -0.163
AGAGGCCT: -0.165
ATGACTTA: 0.179
ACTCAGCA: -0.106
ATGCCTGA: 0.0543
CTCACGGA: -0.212
GTTGCTTA: 0.0673
CATCAACG: -0.0143
ACTCAGAC: -0.0638
AATCTGTC: 0.056
GCGGAATA: 0.0921
ACGTTAAT: 0.243
AAGTTTGG: 0.126
CAGAATAG: 0.0324
CTCGTAAG: 0.0513
CGTGCGGC: -0.205
AGCTTCGC: -0.231
AAGAGCAT: 0.127
CGATCTAC: -0.0208
AATTTTCG: 0.32
AACTCAAT: 0.128
AGAATGAG: 0.0474

Sample 4 — technique: RNA Bind-n-Seq; form: RNA; sample: in vitro; tested at: 365 nM; reference: no-protein control; reading: higher = stronger binding; measurement: RBNS enrichment (R)
Target: RNA binding protein fox-1 homolog 2, RRM domain, GST-SBP tag (RBFOX2, Homo sapiens, UniProt O43251-10, residues 100-194)
Notes: natural RNA segment, single round, ends assumed
Shared flanks, not repeated: GGGAGUUCUACAGUCCGACGAUC … UGGAAUUCUCGGGUGCCAA
Residues (chain): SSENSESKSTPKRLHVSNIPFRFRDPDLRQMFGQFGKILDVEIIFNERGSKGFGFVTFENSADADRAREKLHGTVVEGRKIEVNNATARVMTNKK
AAUAAAAAUGUGUGUAUUAUAUAUAUAUAUUUUUUCCUCCUUGACAGUACUUGGUCACAAUAUCAAGUGUAUUUUUGUACAUAAUAUAUAUUGAUUAGAAAAACGUCAAU: 0.526
UUAAUAUUUCCUCCUGUGUCCUCUGAAUGUCUGGGCGAGCUUUUGGUGAGAGGGCUGGUAUGUCAUGUUGUUAUGAUACAGUCGAAAUUUGUCAAUGCAGUGUGAAUGUU: 1.62
CCGCAGUUCCCCGCUCUGUACUGUAUUUUGCCAUUUCCCGUAGUCAGGUGUUCUGCAGGGUCUCUUCACAUGAAGCUGCCAAGCGUGAGUCAGCCCAUAAGCAAAGUCAA: 0.498
CCAGUACCUAACAUUUCUCAUCCACUUCAAAAGCUGUUCUGACUGCCAGCUGGCUGAUCUAAGCUCCUGAGGAAUGUCUCCUCUCAAAGGAAUUUUUCCCUCCAAAGGCC: 0.334
UUGGAUUCCCAGCACCCACUCAGUGGCCCACAACUAUCCAAUACUCCCGAUGCAUGGGAUCCAGUGCCCUCUUCUGAUCUCUAUGGGCAUCAGGCAUGCACACAGUACAC: 14.1
UCUAGAUAAGCUAGGAUAUUAAUCCAGAGUUACAUUACUGAGAAUUGAGUAGUAUAAGUAGGAUGUUUUUAUUACUUGGUCAUAAUGAAAAUAAUUUGUAAAAUGUCAUU: 9.55
GACCUCACCAUAGGUUGGGGUCCCAGUAGGAAGGCUCAGGGUCUGUGCCAGCCCUGUCGGUGCUGCUCAGACCUUCAUAGCCUCUCUUGUCAUUCUUUGUUGCCCCUUUU: 0.164
AUUUUUAUUAAACAGUGAACUUGUCUGGCUUUGGCACUCUCUGCCAUUCUGUGCAGGCUGCAGUGGCUCCCCUGCCCAGCCUGCUCUCCCUAACCCCUUGUCCGCAAGGG: 0.35

For quick reference, copied from above (sample 3):
CATCAACG: -0.0143
AGGCGTGA: -0.163
ACGGAGCC: -0.275
CGATCTAC: -0.0208
AGAATGAG: 0.0474
ATGACTTA: 0.179
AGAGGCCT: -0.165
ATGCCTGA: 0.0543
CTCGTAAG: 0.0513
AACTCAAT: 0.128
